Measured values from different studies.
Each numbered part is a random draw from the data of one study; scales do not carry over between parts. Positions count from the first letter of the parent shown.

Set 1 — method: protein-binding microarray; form: double-stranded DNA, one strand shown; medium: in vitro; tested at: not given; direction: higher = stronger binding
Target: Transcription factor SOX-2, HMG box (SOX2, Homo sapiens, UniProt P48431, residues 19-118)
Chain of UniProt P48431 (19-118, looked up): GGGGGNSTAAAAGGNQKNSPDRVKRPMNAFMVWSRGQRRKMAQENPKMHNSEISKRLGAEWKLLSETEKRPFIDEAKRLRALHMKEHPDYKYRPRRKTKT
Notes: k-mer, scored over probes, only values ≥0.25
For `AATGGAG`, the E-score was 0.253.
`CTATTGA` gave an E-score of 0.373.
`AATATGT` gave an E-score of 0.258.
`AATGTTA` has an E-score of 0.304.
For `TTGTAAA`, the E-score was 0.29.
For `CAATCAA`, the E-score was 0.331.
`ATTAATG` has an E-score of 0.308.
`GAGACAA` has an E-score of 0.268.

Set 2 — method: protein binding microarray; form: double-stranded DNA, one strand shown; medium: in vitro; tested at: not given; baseline: not given; direction: higher = stronger binding
Target: Histone acetyltransferase KAT6A, both winged helices, GST fusion (KAT6A, Homo sapiens, UniProt Q92794, residues 1-181)
Notes: 8-mer, flanks averaged, mean of 2 arrays, mostly near background
Target sequence (chain): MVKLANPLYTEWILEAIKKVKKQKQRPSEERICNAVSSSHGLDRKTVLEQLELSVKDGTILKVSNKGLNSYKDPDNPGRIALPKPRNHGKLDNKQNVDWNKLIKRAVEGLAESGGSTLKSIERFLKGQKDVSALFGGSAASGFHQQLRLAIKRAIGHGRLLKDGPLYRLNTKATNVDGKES
The E-score of `CGTAGTGC` is reported as 0.072.
The E-score of `AGTCCGAG` is reported as 0.0588.
For `AAGGATGA`, the E-score was -0.109.
`CTACGTGA` gave an E-score of -0.162.
`ATTGGAAA` gave an E-score of -0.158.
For `ATAAAACC`, the E-score was 0.0269.
`CGAGGTAC` has an E-score of -0.05.
The E-score of `GATCAAAC` is reported as 0.0665.

Single results of other studies
P1: viral docking peptide; KGVKRKLFAEDSS; partner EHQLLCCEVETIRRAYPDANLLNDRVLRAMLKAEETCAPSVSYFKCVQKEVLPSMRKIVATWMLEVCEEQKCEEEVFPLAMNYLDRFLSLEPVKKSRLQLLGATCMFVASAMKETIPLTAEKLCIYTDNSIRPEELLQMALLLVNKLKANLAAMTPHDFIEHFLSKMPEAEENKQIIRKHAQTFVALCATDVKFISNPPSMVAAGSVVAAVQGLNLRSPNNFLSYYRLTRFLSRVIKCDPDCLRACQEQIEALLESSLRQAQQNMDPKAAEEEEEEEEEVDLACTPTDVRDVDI
Under interaction screen, `MIX23 (Homo sapiens, UniProt Q4VC31)` is recorded as “cross-linked” (SMIM12 (Homo sapiens, UniProt Q96EX1); cross-linking MS; hits only).
`P1 R5I` — result for “normalised enrichment score”: 0.614 (CCND1, cyclin fold, Cln2 fusion (human); yeast growth competition, sequencing; yeast; strong parent motif; baseline: not given, higher = stronger binding).
`EIF3CL (Homo sapiens, UniProt B5ME19)` — result for interaction screen: “cross-linked” (EIF3E (Homo sapiens, UniProt P60228); cross-linking MS; hits only).
`H3-4 (Homo sapiens, UniProt Q16695)` — result for interaction screen: “cross-linked” (H2AC18 (Homo sapiens, UniProt Q6FI13); cross-linking MS; hits only).

Repeated from above (set 2):
`CGAGGTAC` has an E-score of -0.05.
